Experimental data collected from several papers.
Numbered parts are unrelated; each lists some results of a single study.
UniProt P16220, sequence (whole entry, looked up): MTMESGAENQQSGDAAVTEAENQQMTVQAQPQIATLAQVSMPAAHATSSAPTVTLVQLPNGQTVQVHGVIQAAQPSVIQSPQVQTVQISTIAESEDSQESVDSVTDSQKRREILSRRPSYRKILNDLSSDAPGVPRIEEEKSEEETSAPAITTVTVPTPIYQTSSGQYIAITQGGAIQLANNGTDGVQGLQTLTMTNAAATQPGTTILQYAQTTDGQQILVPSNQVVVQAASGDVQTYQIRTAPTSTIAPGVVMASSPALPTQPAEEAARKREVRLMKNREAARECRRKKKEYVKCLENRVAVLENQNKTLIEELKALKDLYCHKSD
UniProt Q92826, sequence (whole entry, looked up): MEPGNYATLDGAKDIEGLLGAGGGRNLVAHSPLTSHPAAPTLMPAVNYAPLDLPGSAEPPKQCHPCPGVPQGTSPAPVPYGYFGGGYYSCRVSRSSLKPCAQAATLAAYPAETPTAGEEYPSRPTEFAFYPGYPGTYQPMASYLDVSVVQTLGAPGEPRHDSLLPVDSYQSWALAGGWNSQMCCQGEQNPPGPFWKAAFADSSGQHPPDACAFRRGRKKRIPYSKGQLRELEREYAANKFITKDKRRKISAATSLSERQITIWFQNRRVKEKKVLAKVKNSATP
UniProt Q13761, sequence (53-186, looked up): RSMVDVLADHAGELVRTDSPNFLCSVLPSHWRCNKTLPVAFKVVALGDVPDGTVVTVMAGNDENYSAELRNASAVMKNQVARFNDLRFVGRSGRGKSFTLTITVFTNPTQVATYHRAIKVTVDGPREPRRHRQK
UniProt P42224, sequence (whole entry, looked up): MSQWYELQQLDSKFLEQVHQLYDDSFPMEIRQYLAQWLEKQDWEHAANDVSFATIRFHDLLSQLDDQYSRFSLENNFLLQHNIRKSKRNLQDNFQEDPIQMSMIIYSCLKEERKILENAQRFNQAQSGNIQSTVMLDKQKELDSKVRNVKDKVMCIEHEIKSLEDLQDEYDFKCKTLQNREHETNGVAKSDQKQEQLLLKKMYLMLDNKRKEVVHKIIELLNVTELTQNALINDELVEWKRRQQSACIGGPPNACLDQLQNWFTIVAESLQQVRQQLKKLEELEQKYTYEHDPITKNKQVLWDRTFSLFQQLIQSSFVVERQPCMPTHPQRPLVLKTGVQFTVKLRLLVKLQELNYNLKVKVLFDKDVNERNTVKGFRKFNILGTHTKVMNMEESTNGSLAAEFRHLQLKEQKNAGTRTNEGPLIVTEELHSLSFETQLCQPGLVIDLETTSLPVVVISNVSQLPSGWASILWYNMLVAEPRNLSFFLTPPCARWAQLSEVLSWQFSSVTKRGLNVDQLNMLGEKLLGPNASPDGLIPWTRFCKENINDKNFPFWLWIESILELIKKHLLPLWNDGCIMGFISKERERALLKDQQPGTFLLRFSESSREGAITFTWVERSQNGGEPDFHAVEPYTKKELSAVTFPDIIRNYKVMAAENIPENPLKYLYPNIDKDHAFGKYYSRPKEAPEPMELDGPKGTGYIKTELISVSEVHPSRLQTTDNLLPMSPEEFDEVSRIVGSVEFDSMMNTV

Block 1
Target: Replicase polyprotein 1ab, main protease (rep, Severe acute respiratory syndrome coronavirus 2, UniProt P0DTD1)
Observed: enzyme activity
Action: inhibitor
Tested at: 20 µM
Setting: primary screen
| SMILES | inhibition [%] |
| --- | --- |
| CCOC(=O)Cc1ccc(-c2ccccc2)cc1 | 96.2 |
| O=C1/C(=C/c2ccc([N+](=O)[O-])cc2)CS(=O)(=O)C/C1=C\c1ccc([N+](=O)[O-])cc1 | 28.9 |
| Nc1sc2c(c1C(=O)c1ccc(Cl)cc1)CCCC2 | 33.4 |

Block 2
Target: RING finger protein unkempt homolog, zinc fingers 1-6, GST-SBP tag (UNK, Homo sapiens, UniProt Q9C0B0, residues 30-357)
UniProt Q9C0B0, sequence (30-357, looked up): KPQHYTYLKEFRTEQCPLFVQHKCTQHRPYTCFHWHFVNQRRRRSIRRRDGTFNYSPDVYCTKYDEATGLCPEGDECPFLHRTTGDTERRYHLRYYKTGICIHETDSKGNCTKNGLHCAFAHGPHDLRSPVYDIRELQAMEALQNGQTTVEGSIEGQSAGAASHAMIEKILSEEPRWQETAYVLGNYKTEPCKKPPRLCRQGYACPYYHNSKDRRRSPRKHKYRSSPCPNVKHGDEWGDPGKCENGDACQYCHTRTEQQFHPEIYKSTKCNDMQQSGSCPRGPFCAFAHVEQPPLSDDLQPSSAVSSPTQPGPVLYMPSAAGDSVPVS
Method: RNA Bind-n-Seq
Form: RNA
Matrix: in vitro
Tested at: not given
Setting: RNA with constant flanks, human and mouse sites, ends assumed
Relative to: input RNA pool
Reading: higher = stronger binding
Constant ends, left off below: GGGAGUUCUACAGUCCGACGAUC … CAACAGAGGAUUGAGCAUCA
| Sequence | bound/input enrichment |
| --- | --- |
| AAUGUGGAAACAGUAGAAUAUAAGAACAUUUGUUUCACAGUAUGGGAUGUUGGUGGUCAAGAUAGAAUUAGGCCUCUCUGGAAGCAUUACUUCCAGAAUACCCAGGGUCUUAUUUUUGUG | 0.854 ratio |
| AAGUGGUUCCUUAGGACUCACUCAGGUGCUGGUACUGACCCACUAAUCUGCCAUAGGCCCAGAAAUAUCUUCAGAAGUACGUGAGUUGUUCCUCAGGAAUAGAUUUUUCAUAAAGCAGAA | 0.313 ratio |
| GCUCUGGAUAUAGAAAUCGCUGCGUACAGAAAACUCCUGGAGGGUGAAGAGACUAGAUUUAGCACAUUUGCAGGAAGCAUCACUGGGCCACUGUAUACACACCGACCCCCAAUCACAAUA | 0.96 ratio |
| UCAGAUAACGUCACUCGCGCUUGUAGCUUCAUCCGGGAGGCAGCAACGCAAGGAGCCAAAAUAGUUUCUUUGCCGGAAUGCUUUAAUUCUCCAUAUGGAGCGAAAUAUUUUCCUGAAUAU | 0.691 ratio |
| CCCUUUUCUAAAAUUGAGAUAACAUAGUUCUUGAAUAUUUUGCUGUAUUUAUAGCCUCAUAUUUAGGCAUUUAUGCACUGAUGUGUCUUCAAUAAAAAUCUUGUACAGAUAUAUUUUUAU | 0.619 ratio |
| UCUUCAAUAAACUUAGGAAAGUGUGCUCAGGAAGCAGGCUGAGCUGUCCUUUAUUAAUAUUAAUAUUGAUCUCAGAUUCGUCACCAUACAUUUCUUCCCCCUUUAUCUUUUCUUCUCCCU | 0.829 ratio |
| AAGCAUGAACGCAUUGAAAACGAUGUUGCCACCAUCCUGUCUCGCCGUAUUGCUGUUGAAUAUAGUGAUUCGGAAGAUGAUUCAGAAUUUGAUGAAGUAGAUUGGUUGGAGUAAGAAAAA | 0.249 ratio |
| CAUAUUCAUUGGGCUGUUGUAUUCAGCCAGUCUCAUGCUUUCCCUGGGUCUUCACGGAUUGCUUUCCAAGCUGCCUUGUUGCGGGGUUGCUGCAGAGCAGCAACUGGACCUUUCCAGCUG | 0.148 ratio |

Block 3
Cell line: HEK-293T/ACE2
Observed: pseudovirus infection
Organism: VSV pseudotyped with SARS-CoV-2 spike
Tested at: 10 µM
Time: 16 h
Relative to: vehicle-treated
| SMILES | GFP-positive cells [%] |
| --- | --- |
| N#Cc1ccc(C(c2ccc(C#N)cc2)n2cncn2)cc1 | 63.9 |
| CCOc1nc2cccc(C(=O)OC(C)OC(=O)OC3CCCCC3)c2n1Cc1ccc(-c2ccccc2-c2nnn[nH]2)cc1 (stereo not drawn) | 5.52 |
| Cc1cccc(C)c1OCC(=O)N[C@@H](Cc1ccccc1)[C@@H](O)C[C@H](Cc1ccccc1)NC(=O)[C@H](C(C)C)N1CCCNC1=O | 50.9 |

Block 4
Target: Histone acetyltransferase KAT6A, both winged helices, GST fusion (KAT6A, Homo sapiens, UniProt Q92794, residues 1-181)
Method: protein binding microarray
Form: double-stranded DNA, one strand shown
Matrix: in vitro
Tested at: not given
Setting: 8-mer, flanks averaged, mean of 2 arrays, mostly near background
Relative to: not given
Reading: higher = stronger binding
Target sequence (chain): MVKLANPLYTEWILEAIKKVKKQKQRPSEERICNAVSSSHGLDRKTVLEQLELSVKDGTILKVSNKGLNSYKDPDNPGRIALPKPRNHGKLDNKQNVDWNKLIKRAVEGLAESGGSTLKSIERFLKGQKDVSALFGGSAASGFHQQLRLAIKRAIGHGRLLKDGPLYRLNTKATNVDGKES
| Sequence | E-score |
| --- | --- |
| CATGGTCG | 0.0879 |
| CCCTACTC | -0.136 |
| CAAAGGCC | -0.0285 |
| CGACACTA | 0.0711 |
| ACATACTC | -0.175 |
| ATTGGGCA | -0.176 |
| CCAAGTCG | -0.0406 |
| AATTCACT | -0.0886 |

Block 5
Target: Replicase polyprotein 1ab, nsp13 helicase (rep, Severe acute respiratory syndrome coronavirus 2, UniProt P0DTD1)
Action: inhibitor
Tested at: 20 µM
| SMILES | inhibition [%] |
| --- | --- |
| N[C@@H](CC(=O)N1CCn2c(nnc2C(F)(F)F)C1)Cc1[nH]nc2c(F)c(F)ccc12 | 1.15 |
| CN(C)[C@@H]1C(O)=C(C(N)=O)C(=O)[C@@]2(O)C(O)=C3C(=O)c4c(O)cccc4[C@@](C)(O)[C@H]3C[C@@H]12 | 0.55 |
| Cc1cccc([C@H](C)c2c[nH]cn2)c1C | -5.16 |
| CCN[C@@H](C)Cc1cccc(C(F)(F)F)c1 | -2.18 |
| CC1=C(CC(=O)O)c2cc(F)ccc2/C1=C\c1ccc([S+](C)[O-])cc1 (stereo not drawn) | 23 |
| C#C[C@]1(O)CC[C@H]2[C@@H]3CCc4cc(OC5CCCC5)ccc4[C@H]3CC[C@@]21C | 0.53 |
| C[N+]1(CCCCC[N+]2(C)CCCC2)CCCC1 | 2.4 |
| Nc1n[n+]([O-])c2ccccc2[n+]1[O-] | 1.59 |
| NC(=O)C[S+]([O-])C(c1ccccc1)c1ccccc1 (stereo not drawn) | 2.71 |
| CNCC(O)c1ccc(O)c(O)c1 (racemic) | 66.6 |
| C[C@]12CCC(=NOCCN)C[C@@H]1C(=O)C[C@@H]1[C@@H]2CC[C@]2(C)C(=O)CC[C@@H]12 | -4.39 |
| COc1ccc(CC(=O)NC(N=C(NC#N)Nc2cccc3ncccc23)C(C)(C)C)cc1OC (stereo not drawn) | 12.9 |
| CCCCCCCCOc1ccccc1C(=O)Nc1ccc(C(=O)OCC[N+](C)(CC)CC)cc1 | 37.7 |
| CCN(C(C)=O)c1cccc(-c2ccnc3c(C#N)cnn23)c1 | -2.21 |
| CCc1ccc(C2=CC(C)(C)Sc3ccc(C#Cc4ccc(C(=O)O)cc4)cc32)cc1 | 2.82 |
| c1ccc2c(c1)CCCC2C1=NCCN1 (stereo not drawn) | 2.75 |
| O=C(NCC1CCOCC1)c1cnc(Nc2ccc(Cl)cc2Cl)nc1C(F)(F)F | -2.65 |
| CCCN(C/C=C/I)C1CCc2ccc(O)cc2C1 (stereo not drawn) | 0.24 |
| O=C(NCc1ccc(OC(F)(F)F)cc1)C1c2ccccc2C(=O)N1C1CCOCC1 (stereo not drawn) | 13.5 |
| NC1=N[C@@]2(c3cc(NC(=O)c4ccc(F)cn4)ccc3F)COC[C@H]2CS1 | 0.82 |
| O=C1C=CC(=O)C2=C1C1c3ccccc3C2c2ccccc21 | 99.3 |
| O=C1NC(=O)/C(=C/c2ccc(-c3ccc(F)cc3O)o2)S1 | 28.2 |
| N[C@@H](CSSC[C@H](N)C(=O)O)C(=O)O | -0.06 |
| O=C(O)/C=C(/CC(=O)O)C(=O)O | 0.44 |
| CCn1ccnc1CC1COc2ccccc2O1 (stereo not drawn) | 8.34 |

Other studies, line by line
Method: protein-binding microarray
Form: hairpin DNA
Matrix: in vitro
Tested at: not given
Setting: whole hairpin DNA, median over replicate spots
Relative to: not given
Reading: higher = stronger binding
| Sequence | target | median fluorescence [a.u.] |
| --- | --- | --- |
| GAGGCCGACGACGTCGTGCCTCCTGGCACGACGTCGTCGGCCTCACACTC (5mC at 9 29 35) | Cyclic AMP-responsive element-binding protein 1, full length (CREB1, Homo sapiens, UniProt P16220, residues 1-327) | 6290 |
| GAGGCCCCACCGCAACAGCCTCCTGGCTGTTGCGGTGGGGCCTCACACTC (5mC at 8) | Runt-related transcription factor 3, Runt domain (RUNX3, Homo sapiens, UniProt Q13761, residues 53-186) | 6580 |
| GAGGCCTTTCCGGGAAGCCTCCTGGCTTCCCGGAAAGGCCTCACACTCTTTCCCTACACG | Signal transducer and activator of transcription 1-alpha/beta, full length (STAT1, Homo sapiens, UniProt P42224, residues 1-750) | 15500 |
| GAGGCCGTTTTTTTGGGGCCTCCTGGCCCCAAAAAAACGGCCTCACACTC | Homeobox protein Hox-B13, full length (HOXB13, Homo sapiens, UniProt Q92826, residues 1-284) | 3530 |
